Measured values from different studies.
Each line is one published result; not all experiments were run side by side. Several values in a cell are separate wells, animals, samples, runs or records. Numbers after ± are the reported error.
UniProt Q13418, sequence (whole entry, looked up): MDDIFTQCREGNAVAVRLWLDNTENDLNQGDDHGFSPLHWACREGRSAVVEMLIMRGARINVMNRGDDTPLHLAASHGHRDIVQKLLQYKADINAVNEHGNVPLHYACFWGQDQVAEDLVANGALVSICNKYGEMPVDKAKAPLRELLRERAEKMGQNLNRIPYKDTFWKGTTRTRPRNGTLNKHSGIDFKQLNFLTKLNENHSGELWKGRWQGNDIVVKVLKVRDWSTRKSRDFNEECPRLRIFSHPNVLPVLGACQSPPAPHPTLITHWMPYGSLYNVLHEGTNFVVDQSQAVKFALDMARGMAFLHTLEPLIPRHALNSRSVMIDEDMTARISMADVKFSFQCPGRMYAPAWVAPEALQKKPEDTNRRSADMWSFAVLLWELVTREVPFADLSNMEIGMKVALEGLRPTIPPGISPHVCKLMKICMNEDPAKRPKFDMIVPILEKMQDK
UniProt P51957, sequence (whole entry, looked up): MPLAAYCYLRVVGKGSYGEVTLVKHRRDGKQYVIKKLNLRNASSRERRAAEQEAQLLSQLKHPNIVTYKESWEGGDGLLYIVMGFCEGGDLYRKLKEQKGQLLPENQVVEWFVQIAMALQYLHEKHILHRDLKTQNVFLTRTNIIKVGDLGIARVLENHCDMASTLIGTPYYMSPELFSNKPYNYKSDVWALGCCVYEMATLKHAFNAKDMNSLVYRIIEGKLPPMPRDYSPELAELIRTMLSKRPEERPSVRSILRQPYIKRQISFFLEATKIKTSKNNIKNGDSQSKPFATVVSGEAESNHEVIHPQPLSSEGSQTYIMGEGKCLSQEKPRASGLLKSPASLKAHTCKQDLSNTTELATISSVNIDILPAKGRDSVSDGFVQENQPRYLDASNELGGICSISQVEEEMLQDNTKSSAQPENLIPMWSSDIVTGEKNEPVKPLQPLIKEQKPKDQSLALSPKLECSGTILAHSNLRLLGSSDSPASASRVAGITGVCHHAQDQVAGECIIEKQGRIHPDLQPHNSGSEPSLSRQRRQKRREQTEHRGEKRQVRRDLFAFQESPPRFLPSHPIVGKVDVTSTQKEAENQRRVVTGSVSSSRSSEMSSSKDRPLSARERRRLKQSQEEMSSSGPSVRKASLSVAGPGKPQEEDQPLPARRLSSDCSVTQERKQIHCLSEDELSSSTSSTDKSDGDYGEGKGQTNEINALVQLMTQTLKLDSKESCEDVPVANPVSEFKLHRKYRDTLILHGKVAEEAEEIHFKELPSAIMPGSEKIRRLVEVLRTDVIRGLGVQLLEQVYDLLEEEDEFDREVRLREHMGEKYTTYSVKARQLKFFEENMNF
UniProt O42275, sequence (whole entry, looked up): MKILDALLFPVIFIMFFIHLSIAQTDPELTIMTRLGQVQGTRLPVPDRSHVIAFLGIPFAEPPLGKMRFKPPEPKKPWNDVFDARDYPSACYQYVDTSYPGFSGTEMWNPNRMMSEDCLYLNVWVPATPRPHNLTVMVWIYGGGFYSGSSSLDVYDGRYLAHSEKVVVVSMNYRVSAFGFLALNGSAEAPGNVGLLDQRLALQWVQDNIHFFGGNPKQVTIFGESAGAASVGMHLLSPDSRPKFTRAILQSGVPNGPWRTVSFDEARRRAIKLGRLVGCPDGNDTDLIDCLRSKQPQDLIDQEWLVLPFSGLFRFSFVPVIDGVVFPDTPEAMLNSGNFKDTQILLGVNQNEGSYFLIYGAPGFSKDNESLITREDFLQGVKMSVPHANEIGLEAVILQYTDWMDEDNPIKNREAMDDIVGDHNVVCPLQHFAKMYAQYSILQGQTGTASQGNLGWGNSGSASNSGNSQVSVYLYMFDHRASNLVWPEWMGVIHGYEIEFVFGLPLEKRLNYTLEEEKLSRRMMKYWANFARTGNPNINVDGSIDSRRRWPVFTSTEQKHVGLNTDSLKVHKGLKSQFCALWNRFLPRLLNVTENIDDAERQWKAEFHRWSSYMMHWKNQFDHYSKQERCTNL
UniProt P0A7A9, sequence (whole entry, looked up): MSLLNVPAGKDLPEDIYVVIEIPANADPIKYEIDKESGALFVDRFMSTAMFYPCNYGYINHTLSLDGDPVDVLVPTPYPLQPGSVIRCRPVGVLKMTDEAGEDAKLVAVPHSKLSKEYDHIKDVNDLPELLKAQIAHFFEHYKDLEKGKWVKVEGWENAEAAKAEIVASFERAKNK
UniProt P00811, sequence (whole entry, looked up): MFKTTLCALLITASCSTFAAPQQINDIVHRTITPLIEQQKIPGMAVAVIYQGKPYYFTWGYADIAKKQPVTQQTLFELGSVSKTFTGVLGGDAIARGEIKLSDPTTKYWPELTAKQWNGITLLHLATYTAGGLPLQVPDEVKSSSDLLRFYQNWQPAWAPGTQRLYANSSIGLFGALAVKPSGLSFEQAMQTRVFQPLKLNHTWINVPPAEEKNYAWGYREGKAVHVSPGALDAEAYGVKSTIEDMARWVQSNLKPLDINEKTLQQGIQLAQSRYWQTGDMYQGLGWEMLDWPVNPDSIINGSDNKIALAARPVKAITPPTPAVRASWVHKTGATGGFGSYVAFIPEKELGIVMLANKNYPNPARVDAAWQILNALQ
UniProt Q13470, sequence (whole entry, looked up): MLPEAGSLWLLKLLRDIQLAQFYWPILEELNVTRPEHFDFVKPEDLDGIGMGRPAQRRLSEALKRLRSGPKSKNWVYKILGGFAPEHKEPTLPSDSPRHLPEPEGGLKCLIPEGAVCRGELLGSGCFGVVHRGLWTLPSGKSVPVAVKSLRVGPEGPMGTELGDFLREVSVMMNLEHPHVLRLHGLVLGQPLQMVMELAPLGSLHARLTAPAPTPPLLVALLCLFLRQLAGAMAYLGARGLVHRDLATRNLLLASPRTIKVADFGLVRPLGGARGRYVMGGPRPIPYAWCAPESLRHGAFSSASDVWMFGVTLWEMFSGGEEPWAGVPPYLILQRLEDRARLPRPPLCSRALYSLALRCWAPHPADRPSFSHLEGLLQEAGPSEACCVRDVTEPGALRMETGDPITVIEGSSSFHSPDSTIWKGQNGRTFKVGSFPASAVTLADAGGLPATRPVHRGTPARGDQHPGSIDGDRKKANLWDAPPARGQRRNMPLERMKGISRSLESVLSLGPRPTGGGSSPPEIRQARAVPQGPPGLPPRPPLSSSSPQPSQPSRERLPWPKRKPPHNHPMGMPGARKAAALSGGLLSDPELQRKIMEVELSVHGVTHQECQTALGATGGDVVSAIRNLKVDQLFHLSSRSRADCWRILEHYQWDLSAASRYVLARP
UniProt P32246, sequence (whole entry, looked up): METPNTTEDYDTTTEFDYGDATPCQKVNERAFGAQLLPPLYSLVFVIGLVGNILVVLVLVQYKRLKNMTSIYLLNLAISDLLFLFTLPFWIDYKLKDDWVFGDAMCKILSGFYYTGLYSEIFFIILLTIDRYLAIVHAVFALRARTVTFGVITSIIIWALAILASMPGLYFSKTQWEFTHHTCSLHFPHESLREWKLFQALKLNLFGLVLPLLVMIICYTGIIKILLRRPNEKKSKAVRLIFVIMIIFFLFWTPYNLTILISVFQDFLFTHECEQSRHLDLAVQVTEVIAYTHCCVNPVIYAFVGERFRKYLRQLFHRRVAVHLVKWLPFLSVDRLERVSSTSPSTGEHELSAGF
UniProt O13828, sequence (whole entry, looked up): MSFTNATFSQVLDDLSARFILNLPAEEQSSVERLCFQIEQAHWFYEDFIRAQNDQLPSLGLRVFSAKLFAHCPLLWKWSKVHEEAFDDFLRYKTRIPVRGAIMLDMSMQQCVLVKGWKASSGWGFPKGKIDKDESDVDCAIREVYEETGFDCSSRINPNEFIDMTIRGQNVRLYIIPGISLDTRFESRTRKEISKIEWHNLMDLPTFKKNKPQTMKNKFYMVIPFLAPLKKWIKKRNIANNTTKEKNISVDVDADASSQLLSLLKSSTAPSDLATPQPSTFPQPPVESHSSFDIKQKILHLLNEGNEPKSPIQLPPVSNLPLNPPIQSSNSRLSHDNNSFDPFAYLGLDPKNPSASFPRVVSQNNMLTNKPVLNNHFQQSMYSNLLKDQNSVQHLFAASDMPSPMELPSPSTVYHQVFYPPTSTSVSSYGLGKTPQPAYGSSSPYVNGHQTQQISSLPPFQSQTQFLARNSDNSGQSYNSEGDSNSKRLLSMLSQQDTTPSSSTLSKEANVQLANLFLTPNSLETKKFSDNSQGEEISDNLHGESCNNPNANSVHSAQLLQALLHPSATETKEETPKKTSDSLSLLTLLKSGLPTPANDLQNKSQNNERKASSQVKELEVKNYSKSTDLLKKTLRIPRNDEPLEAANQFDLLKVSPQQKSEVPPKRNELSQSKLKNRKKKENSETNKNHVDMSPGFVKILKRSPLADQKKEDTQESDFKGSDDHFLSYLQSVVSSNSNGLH

SMILES | target | test | test system | setting | inhibition
CS(C)(=O)=Nc1ccc(-c2ccc(-c3nc4cc(O[C@@H]5CO[C@H]6[C@@H]5OC[C@H]6O)[nH]c4cc3F)cc2)cc1 | central benzodiazepine receptor | binding | – | 10 µM | 14%
COc1nccc(-c2ccccc2)c1B(O)O | Beta-lactamase (ampC, Escherichia coli K-12, UniProt P00811) | enzyme activity, inhibitor, CENTA hydrolysis absorbance | – | 10 µM | < 10%
O=C(NC1CCN(c2ncnc3[nH]cnc23)CC1)c1cccc(NS(=O)(=O)c2ccc(C(F)(F)F)cc2)c1 | Replicase polyprotein 1ab, nsp14 (Human coronavirus OC43, UniProt P0C6X6) | enzyme activity | – | 200 µM | 96.6%
COc1ccc(F)cc1S(=O)(=O)Nc1cnc2c(c1)C(=O)NCCO2 | CCR1 (Homo sapiens, UniProt P32246) | ligand displacement, radioligand | – | 10 µM | 6%
CC(C)[C@H]1NC(=O)C[C@H]2/C=C/CCSSC[C@@H](NC1=O)C(=O)N[C@H](Cc1cccc3ccccc13)C(=O)NCC(=O)O2 | TNK1 (Homo sapiens, UniProt Q13470) | enzyme activity, inhibitor | – | 10 µM | 0.378%
C[n+]1cn([C@@H]2O[C@H](COP(=O)(O)NP(=O)([O-])OP(=O)(O)O)[C@@H](O)[C@H]2O)c2nc(N)nc(O)c21 | mRNA decapping complex subunit 2, with Dcp1 (dcp2, Schizosaccharomyces pombe, UniProt O13828) | – | – | 200 µM, 0.25 h | 17.2%
O=C(O)c1ccccc1/C=N/Nc1nc(-c2ccccc2Cl)cs1 | SRM kinase | kinase activity, inhibitor | – | 1 µM | 11.2% and 12.6%
CN(C)[C@H]1C[C@@]23CC[C@@]4(O2)C(=CC[C@]2(C)[C@@H](c5ccc6ccncc6c5)CC[C@H]24)C=C3[C@@H](O)[C@@H]1O | ILK (Homo sapiens, UniProt Q13418) | ATP probe labelling, inhibitor, KiNativ profiling | – | 1 µM | 7.6%
C=CC(=O)Nc1cc(-c2nn(C3CCC(N4CCN(C(C)=O)CC4)CC3)c3ncnc(N)c23)ccc1Oc1ccccc1 (stereo not drawn) | NEK4 (Homo sapiens, UniProt P51957) | inhibitor, KiNativ profiling | biochemical | 2 µM | 16.6%
CC(C)(C)C1CCC(c2cc3ccccc3s2)(N2CCCCC2)CC1 (stereo not drawn) | ppa (Escherichia coli, UniProt P0A7A9) | inhibitor, counter-screen, coupling enzyme alone | – | 30 µM | 21.6%
N[C@H](C(=O)N1CCCC1)C1CCN(c2nccc3c(-c4ncc(Cl)cc4Cl)cccc23)CC1 | NMDA receptor | binding, radioligand binding | – | 10 µM | 21%
O=S(=O)(F)CCc1cn(-c2cccc(Cl)c2)nn1 | ache (Electrophorus electricus, UniProt O42275) | Ellman | – | 20 µM | 37.4 ± 2.1%

Excerpt of the above:
SMILES | target | test | test system | setting | inhibition
CC(C)(C)C1CCC(c2cc3ccccc3s2)(N2CCCCC2)CC1 (stereo not drawn) | ppa (Escherichia coli, UniProt P0A7A9) | inhibitor, counter-screen, coupling enzyme alone | – | 30 µM | 21.6%
N[C@H](C(=O)N1CCCC1)C1CCN(c2nccc3c(-c4ncc(Cl)cc4Cl)cccc23)CC1 | NMDA receptor | binding, radioligand binding | – | 10 µM | 21%
